Assay results gathered from unrelated publications.
A part holds a random share of what one study measured.
Chain of UniProt Q9HAZ1 (whole entry, looked up): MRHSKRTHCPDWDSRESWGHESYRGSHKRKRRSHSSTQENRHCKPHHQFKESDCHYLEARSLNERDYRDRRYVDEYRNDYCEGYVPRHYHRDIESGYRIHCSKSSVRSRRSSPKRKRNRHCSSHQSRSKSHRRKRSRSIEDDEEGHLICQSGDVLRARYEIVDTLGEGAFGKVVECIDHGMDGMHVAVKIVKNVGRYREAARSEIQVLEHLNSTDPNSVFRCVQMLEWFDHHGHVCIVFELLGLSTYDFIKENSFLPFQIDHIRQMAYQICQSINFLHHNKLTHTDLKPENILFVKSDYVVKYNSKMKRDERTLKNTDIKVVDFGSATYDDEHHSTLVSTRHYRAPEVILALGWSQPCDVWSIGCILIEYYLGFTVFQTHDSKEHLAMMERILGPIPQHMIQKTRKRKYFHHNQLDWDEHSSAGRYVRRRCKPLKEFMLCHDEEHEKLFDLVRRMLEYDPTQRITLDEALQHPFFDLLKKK
Chain of UniProt P31751 (whole entry, looked up): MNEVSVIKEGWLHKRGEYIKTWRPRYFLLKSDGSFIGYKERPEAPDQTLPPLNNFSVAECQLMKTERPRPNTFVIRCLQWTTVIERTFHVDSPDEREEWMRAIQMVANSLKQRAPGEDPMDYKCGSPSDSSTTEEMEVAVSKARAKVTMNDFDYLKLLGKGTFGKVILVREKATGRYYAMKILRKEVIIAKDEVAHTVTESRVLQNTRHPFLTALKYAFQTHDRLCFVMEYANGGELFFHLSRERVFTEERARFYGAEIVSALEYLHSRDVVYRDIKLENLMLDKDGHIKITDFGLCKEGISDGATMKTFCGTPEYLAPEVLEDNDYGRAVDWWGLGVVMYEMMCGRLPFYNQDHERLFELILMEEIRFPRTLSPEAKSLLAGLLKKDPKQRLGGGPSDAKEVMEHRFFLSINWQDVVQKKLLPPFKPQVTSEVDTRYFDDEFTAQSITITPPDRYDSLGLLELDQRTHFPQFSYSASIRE
Chain of UniProt P42681 (whole entry, looked up): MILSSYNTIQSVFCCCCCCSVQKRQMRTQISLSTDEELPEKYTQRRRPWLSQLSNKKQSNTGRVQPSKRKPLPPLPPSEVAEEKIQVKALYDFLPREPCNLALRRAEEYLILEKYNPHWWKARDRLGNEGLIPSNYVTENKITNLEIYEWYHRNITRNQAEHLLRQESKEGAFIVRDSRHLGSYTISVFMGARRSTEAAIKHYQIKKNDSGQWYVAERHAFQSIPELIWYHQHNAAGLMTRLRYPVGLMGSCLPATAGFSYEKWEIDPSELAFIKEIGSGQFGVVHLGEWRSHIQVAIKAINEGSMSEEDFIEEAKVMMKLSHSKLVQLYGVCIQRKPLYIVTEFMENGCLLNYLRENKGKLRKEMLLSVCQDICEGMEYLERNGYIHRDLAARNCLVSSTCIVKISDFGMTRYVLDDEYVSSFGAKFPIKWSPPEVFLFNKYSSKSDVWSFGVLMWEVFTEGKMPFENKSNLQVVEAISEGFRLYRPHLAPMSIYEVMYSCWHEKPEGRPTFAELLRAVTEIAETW
Chain of UniProt P49761 (whole entry, looked up): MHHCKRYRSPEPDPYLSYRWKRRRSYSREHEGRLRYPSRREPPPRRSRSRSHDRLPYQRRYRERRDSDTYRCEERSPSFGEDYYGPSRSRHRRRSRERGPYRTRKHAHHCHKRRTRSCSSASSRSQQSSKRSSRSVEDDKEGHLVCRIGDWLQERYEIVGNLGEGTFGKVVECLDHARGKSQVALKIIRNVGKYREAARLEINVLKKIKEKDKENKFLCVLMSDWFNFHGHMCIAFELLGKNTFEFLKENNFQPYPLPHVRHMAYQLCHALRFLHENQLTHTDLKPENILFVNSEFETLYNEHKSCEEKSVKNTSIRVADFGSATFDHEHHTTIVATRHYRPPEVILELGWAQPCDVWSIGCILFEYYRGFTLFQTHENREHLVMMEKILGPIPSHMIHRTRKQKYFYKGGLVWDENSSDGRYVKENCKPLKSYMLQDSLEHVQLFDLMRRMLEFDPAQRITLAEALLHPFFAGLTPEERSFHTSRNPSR
Chain of UniProt P08581 (whole entry, looked up): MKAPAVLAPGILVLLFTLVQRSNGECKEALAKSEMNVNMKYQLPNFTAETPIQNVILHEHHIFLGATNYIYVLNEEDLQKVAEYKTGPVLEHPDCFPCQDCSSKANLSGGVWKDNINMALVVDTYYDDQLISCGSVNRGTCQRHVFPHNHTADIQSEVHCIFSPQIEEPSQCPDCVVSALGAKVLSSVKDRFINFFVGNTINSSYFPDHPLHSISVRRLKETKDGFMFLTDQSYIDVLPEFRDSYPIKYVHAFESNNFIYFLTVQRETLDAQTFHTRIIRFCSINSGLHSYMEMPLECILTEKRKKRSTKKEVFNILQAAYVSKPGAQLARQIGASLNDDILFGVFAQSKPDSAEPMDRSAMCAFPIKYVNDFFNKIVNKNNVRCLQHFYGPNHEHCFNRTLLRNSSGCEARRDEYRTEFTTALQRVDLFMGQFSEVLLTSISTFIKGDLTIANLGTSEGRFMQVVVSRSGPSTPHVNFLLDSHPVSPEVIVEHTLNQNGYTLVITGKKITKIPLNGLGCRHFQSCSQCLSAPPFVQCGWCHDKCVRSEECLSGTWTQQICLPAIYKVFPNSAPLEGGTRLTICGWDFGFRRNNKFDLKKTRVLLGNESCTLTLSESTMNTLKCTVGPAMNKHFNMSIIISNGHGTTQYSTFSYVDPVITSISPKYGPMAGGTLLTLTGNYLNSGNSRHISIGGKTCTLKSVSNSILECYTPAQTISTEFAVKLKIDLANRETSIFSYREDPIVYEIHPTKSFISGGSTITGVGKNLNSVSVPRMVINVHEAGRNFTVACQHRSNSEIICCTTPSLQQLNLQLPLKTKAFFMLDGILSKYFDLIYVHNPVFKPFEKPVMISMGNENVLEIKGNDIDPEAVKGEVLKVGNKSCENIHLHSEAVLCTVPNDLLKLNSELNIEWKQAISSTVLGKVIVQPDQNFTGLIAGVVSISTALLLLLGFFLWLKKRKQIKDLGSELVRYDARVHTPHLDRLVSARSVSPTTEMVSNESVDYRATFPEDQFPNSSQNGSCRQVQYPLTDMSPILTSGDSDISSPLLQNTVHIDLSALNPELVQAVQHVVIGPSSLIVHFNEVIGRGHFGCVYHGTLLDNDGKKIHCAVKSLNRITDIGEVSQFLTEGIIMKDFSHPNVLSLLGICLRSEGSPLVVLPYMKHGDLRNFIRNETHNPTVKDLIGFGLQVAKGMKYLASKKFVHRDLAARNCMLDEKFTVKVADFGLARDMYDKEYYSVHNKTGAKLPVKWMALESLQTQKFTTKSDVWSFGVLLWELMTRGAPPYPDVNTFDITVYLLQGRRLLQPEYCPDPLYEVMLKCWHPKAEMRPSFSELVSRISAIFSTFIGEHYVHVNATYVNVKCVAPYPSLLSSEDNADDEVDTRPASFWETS
Chain of UniProt Q13464 (whole entry, looked up): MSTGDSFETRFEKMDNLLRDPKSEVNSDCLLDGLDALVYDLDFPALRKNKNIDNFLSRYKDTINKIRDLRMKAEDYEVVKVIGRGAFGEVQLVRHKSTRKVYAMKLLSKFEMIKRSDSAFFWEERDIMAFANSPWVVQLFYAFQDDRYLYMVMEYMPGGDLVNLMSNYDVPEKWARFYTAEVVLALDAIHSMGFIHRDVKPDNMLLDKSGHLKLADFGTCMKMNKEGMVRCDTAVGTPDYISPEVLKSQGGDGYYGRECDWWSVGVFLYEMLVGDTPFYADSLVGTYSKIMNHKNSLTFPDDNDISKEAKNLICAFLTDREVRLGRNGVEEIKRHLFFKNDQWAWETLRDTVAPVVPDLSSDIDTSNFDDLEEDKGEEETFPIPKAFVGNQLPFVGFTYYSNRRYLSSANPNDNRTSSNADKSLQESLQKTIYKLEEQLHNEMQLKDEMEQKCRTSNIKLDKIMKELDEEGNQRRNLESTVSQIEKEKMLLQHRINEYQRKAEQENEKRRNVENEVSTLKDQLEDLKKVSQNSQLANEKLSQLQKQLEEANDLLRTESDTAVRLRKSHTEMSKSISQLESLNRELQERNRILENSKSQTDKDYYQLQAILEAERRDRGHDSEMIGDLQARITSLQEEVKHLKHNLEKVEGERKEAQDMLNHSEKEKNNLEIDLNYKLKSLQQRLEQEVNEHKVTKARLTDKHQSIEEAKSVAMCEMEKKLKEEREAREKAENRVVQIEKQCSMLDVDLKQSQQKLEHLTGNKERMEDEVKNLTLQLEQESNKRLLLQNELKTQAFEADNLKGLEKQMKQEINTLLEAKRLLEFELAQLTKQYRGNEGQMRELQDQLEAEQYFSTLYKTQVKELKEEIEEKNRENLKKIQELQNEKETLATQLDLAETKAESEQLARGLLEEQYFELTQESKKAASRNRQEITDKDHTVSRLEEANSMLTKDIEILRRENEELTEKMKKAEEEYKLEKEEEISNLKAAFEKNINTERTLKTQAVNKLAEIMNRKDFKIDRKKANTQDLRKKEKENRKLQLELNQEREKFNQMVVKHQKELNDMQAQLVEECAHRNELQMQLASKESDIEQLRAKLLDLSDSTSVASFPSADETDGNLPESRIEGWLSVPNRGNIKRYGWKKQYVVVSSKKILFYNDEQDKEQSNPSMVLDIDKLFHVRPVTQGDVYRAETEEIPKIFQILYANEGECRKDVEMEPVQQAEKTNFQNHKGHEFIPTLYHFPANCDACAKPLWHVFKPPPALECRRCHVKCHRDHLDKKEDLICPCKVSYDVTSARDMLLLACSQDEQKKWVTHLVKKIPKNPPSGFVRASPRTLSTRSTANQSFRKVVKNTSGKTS
Chain of UniProt Q8N752 (whole entry, looked up): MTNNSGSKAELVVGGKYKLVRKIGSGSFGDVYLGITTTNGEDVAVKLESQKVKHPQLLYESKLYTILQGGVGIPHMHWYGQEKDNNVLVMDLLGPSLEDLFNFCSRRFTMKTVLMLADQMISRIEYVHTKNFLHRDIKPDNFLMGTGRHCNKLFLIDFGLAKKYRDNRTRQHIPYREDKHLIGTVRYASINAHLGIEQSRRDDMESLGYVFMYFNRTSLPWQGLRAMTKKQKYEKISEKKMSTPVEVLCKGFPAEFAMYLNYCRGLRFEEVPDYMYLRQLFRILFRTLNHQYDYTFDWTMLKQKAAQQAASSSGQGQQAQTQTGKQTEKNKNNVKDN

Set 1
SMILES: O=C(O)[C@@H]1[C@@H](Cn2nnc3ccccc3c2=O)CC[C@H]1C(=O)c1ccc(OCCC2CCOCC2)cc1
Effect on: cell-free assay
Method: competition with immobilised ligand
Tested at: 1 µM
| target | remaining binding [%] |
| --- | --- |
| CSNK1A1L (Homo sapiens, UniProt Q8N752) | 100 |
| NEK2 (Homo sapiens, UniProt P51955) | 100 |
| CDK15 (Homo sapiens, UniProt Q96Q40) | 100 |
| Tyrosine-protein kinase ABL1, non-phosphorylated (ABL1, Homo sapiens, UniProt P00519) | 95 |
| HIPK2 (Homo sapiens, UniProt Q9H2X6) | 100 |
| Aurora kinase B (AURKB, Homo sapiens, UniProt Q96GD4) | 100 |
| STK38 (Homo sapiens, UniProt Q15208) | 95 |
| EPHB3 (Homo sapiens, UniProt P54753) | 100 |

Set 2
Organism: Plasmodium berghei
Action: inhibitor
Cell line: Huh-7
Strain: GFP-expressing, liver stage
Tested at: 10 µM
Time: 24 h
Relative to: untreated control
| SMILES | infection rate |
| --- | --- |
| CCCN(CCC)C(=O)C(CCC(=O)O)NC(=O)c1ccccc1 (centres unmarked) | 113% |
| CC(C)[N+](C)(CCOC(=O)C1c2ccccc2Oc2ccccc21)C(C)C | 51.2% |
| COc1cc(NS(=O)(=O)c2ccc(N)cc2)nc(OC)n1 | 99.2% |
| CC(=O)[C@H]1CC[C@H]2[C@@H]3CCC4=CC(=O)CC[C@]4(C)[C@H]3CC[C@]12C | 70% |
| CCOC(N)=O | 91.6% |
| CC(=O)NS(=O)(=O)c1ccc(NC(=O)c2ccccc2C(=O)O)cc1 | 82.9% |
| Nc1ccc(S(=O)(=O)Nc2ncccn2)cc1 | 104% |
| CC1=C(CC(=O)O)c2cc(F)ccc2/C1=C\c1ccc([S+](C)[O-])cc1 (centres unmarked) | 110% |
| CC(Oc1ccccc1)C(=O)N[C@@H]1C(=O)N2[C@@H]1SC(C)(C)[C@@H]2C(=O)O (some centres unmarked) | 100% |
| NCCNCCNCCN | 96.1% |
| C[C@H](CCC(=O)O)[C@H]1CC[C@H]2[C@@H]3C(=O)C[C@@H]4CC(=O)CC[C@]4(C)[C@H]3CC(=O)[C@]12C | 110% |

Set 3
Organism: Sarcocystis neurona
Effect on: parasite activity
Tested at: 10 µM
Time: 96 h
| SMILES | activity class |
| --- | --- |
| CCCNC(C)C(=O)Nc1ccccc1C (centres unmarked) | inactive |
| CCOc1ccc2ccccc2c1C(=O)N[C@@H]1C(=O)N2[C@@H]1SC(C)(C)[C@@H]2C(=O)O | inactive |
| CN(C)CCc1c[nH]c2ccc(Cn3cncn3)cc12 | inactive |
| O=C(O)C[C@H](O)C[C@H](O)/C=C/c1c(C2CC2)nc2ccccc2c1-c1ccc(F)cc1 | inactive |
| CC(C)(C(=O)c1cccnc1)c1cccnc1 | inactive |
| Nc1ccc(S(=O)(=O)c2ccc(N)cc2)cc1 | inactive |
| C/C=C1\[C@H]2C=C(C)C[C@]1(N)c1ccc(=O)[nH]c1C2 | inactive |

Set 4
Compound: CN1CCN(c2ccc3nc(-c4c(N)c5c(F)cccc5[nH]c4=O)[nH]c3c2)CC1
Effect on: enzyme activity
Action: inhibitor
Tested at: 0.5 µM
Relative to: control
| target | remaining activity [%] |
| --- | --- |
| MINK1 (Homo sapiens, UniProt Q8N4C8) | 1.65 |
| TXK (Homo sapiens, UniProt P42681) | 75.1 |
| PLK3 (Homo sapiens, UniProt Q9H4B4) | 101 |
| CLK4 (Homo sapiens, UniProt Q9HAZ1) | 52.2 |
| TLK2 (Homo sapiens, UniProt Q86UE8) | 89.3 |
| ROCK1 (Homo sapiens, UniProt Q13464) | 100 |
| MARK4 (Homo sapiens, UniProt Q96L34) | 25.5 |
| AKT2 (Homo sapiens, UniProt P31751) | 109 |
| MET (Homo sapiens, UniProt P08581) | 84.4 |
| Cyclin-dependent kinase 1, with cyclin A (CDK1, Homo sapiens, UniProt P06493) | 93.6 |
| CLK3 (Homo sapiens, UniProt P49761) | 104 |
| MAP2K1 (Homo sapiens, UniProt Q02750) | 88.7 |

For quick reference, copied from above (set 3):
| SMILES | activity class |
| --- | --- |
| CCOc1ccc2ccccc2c1C(=O)N[C@@H]1C(=O)N2[C@@H]1SC(C)(C)[C@@H]2C(=O)O | inactive |
| CC(C)(C(=O)c1cccnc1)c1cccnc1 | inactive |
| C/C=C1\[C@H]2C=C(C)C[C@]1(N)c1ccc(=O)[nH]c1C2 | inactive |
